Results collected from several papers.
A part holds a random share of what one study measured. Substitutions count along the parent as printed.

Set 1 — technique: aptamer microarray, sandwich; form: DNA with 2'F-ANA; sample: in vitro; tested at: 200 nM; together with: Cy3 exosite-II aptamer, 400 nM; reading: higher = stronger binding; strand: GGTTGGTGTGGTTGG
Target: Prothrombin, mature alpha-thrombin (F2, Homo sapiens, UniProt P00734)
Setting: whole 15-mer aptamer, many near background
Modification | mean fluorescence intensity
2'F-ANA at 1 3 5 6 9 11 13 15 | 55 a.u.
2'F-ANA at 1 4 5 6 7 9 10 12 | 51.4 a.u.
2'F-ANA at 2 5 8 9 14 15 | 45 a.u.
2'F-ANA at 3 9 10 12 13 14 | 407 a.u.
2'F-ANA at 3 4 5 6 7 8 11 12 13 14 | 85.5 a.u.
2'F-ANA at 3 5 10 11 12 15 | 62.7 a.u.
2'F-ANA at 2 3 4 7 8 10 11 12 | 289 a.u.
2'F-ANA at 1 6 7 11 12 13 | 245 a.u.
2'F-ANA at 2 3 7 8 9 10 12 14 15 | 339 a.u.
2'F-ANA at 4 7 9 10 13 14 15 | 61.6 a.u.
2'F-ANA at 2 4 6 8 14 | 92.5 a.u.
2'F-ANA at 1 4 6 11 13 15 | 92.7 a.u.
2'F-ANA at 3 6 7 8 9 13 15 | 797 a.u.
2'F-ANA at 2 6 7 11 12 13 14 | 138 a.u.
2'F-ANA at 4 6 7 11 14 15 | 96 a.u.
2'F-ANA at 1 3 4 8 11 14 | 80.9 a.u.
2'F-ANA at 1 2 3 5 6 8 9 10 12 | 50.5 a.u.
2'F-ANA at 2 9 13 14 | 123 a.u.
2'F-ANA at 2 5 7 12 13 14 15 | 66.8 a.u.
2'F-ANA at 1 3 5 7 8 11 12 13 14 15 | 51.1 a.u.
2'F-ANA at 2 3 13 14 15 | 419 a.u.
2'F-ANA at 1 2 4 5 7 8 9 10 11 12 14 | 48 a.u.
2'F-ANA at 3 5 6 8 10 12 | 75.5 a.u.
2'F-ANA at 3 4 5 12 15 | 239 a.u.
2'F-ANA at 3 4 6 14 15 | 277 a.u.

Set 2 — technique: competition protein-binding microarray; form: double-stranded DNA, one strand shown; sample: in vitro; tested at: 2 µM; together with: Cbf1 competitor, 0.05 µM; reading: higher = stronger binding; constant ends, left off below: … GTCTTGATTCGCTTGACGCTGCTG
Target: Phosphate system positive regulatory protein PHO4, full length, GST-tagged (PHO4, Saccharomyces cerevisiae, UniProt P07270, residues 1-312)
Setting: whole 60-bp probe, lowest competitor level
Construct (chain): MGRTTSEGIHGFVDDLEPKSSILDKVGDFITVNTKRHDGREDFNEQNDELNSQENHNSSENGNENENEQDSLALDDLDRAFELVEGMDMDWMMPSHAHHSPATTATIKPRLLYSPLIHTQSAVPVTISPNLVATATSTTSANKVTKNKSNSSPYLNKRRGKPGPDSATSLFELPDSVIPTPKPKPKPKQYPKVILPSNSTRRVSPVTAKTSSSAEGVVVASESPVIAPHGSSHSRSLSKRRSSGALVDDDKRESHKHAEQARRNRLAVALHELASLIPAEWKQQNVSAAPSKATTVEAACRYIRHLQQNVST
Strand | fluorescence intensity
AAAGCGGTAATTTTTCACGTGTGGTCAAATATCTAT | 13200 a.u.
TGATTTCTCTATTTTATATTGCCTATTATTTTTTCA | 2810 a.u.
TGCGCAACAACTTGTCCCGTGGGTGTATGTCTAGAA | 10000 a.u.
CCCGATCCTTCTTACCGCGTGCTTTGTGAAAAGCAA | 11900 a.u.
CTTTCCCGATCTTGCTCGGTGGGTGTAGCACATTTG | 4570 a.u.
GTTACCTAATAACTTCATGTGATATGCTCCCCCTTC | 5800 a.u.
TGCGCAACAACTTGTGCGGTGGGTGTATGTCTAGAA | 6540 a.u.
GATAATGACACACAGCACGCAAGTACAAGTGTCAAT | 7050 a.u.
AGACGGGGATCATCTTGCATGACAGTGCTAACATTT | 4420 a.u.
CTTTCCCGATCTTACCACGTGTTTTTAGCACATTTG | 18300 a.u.
TGAAGACAACTCGGCCACGTGGGTAAAAGAAGAAGC | 20200 a.u.
CTAACGAAGGTTTGACTGGTGGGTGACAAGCCAAGT | 3540 a.u.
TACTAGCACTGCCACACCGTGCAATCCATACAGGAT | 7650 a.u.
ACAGAAACGAAGTATACCGTGCGATTGATTATGGTC | 5410 a.u.
CGGGGTTAAGTTTGGTTCGTGGGTGGCTTGCAGCAG | 6020 a.u.
CGGGGTTAAGTTTGGCACGTGGGTGGCTTGCAGCAG | 18800 a.u.
AAAGCGGTAATTTGTCACCCCACTTCACATATCTAT | 3690 a.u.
CTTCTGTAAATTTGATTCGTGGGTGGACGCGCCCCG | 5300 a.u.
TGTTGCTGTTCGCGTCAGCTGAGGCTGAGTATCGTT | 2730 a.u.
CATACCCAACCTTTTCACGTGCACTAAGATATTTGT | 15800 a.u.
CATACCCAACCTTGGCGCGTGGGTGAAGATATTTGT | 13000 a.u.
CGGGGTTAAGTTTGTCACACCACTTGCTTGCAGCAG | 4350 a.u.
TCTGCATATTTGTAAAACGTGCAAAAAAGTAAAGAA | 13700 a.u.
GATCCCGCTCCTTGGCGTGTTCATTCTGTTACGATC | 4830 a.u.

Set 3 — technique: RNA Bind-n-Seq; form: RNA; sample: in vitro; tested at: 365 nM; baseline: no-protein control; reading: higher = stronger binding
Target: RNA binding protein fox-1 homolog 2, RRM domain, GST-SBP tag (RBFOX2, Homo sapiens, UniProt O43251-10, residues 100-194)
Setting: natural RNA segment, single round, ends assumed
Constant ends, left off below: GGGAGUUCUACAGUCCGACGAUC … UGGAAUUCUCGGGUGCCAA
Residues (chain): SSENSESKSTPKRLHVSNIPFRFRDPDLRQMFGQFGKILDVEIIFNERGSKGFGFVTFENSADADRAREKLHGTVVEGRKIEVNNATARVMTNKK
Strand | RBNS enrichment (R)
UUAGCUUGUGCGUGUCAAAAGAAGGAACAGCUCGUUCUGCUUCCUGCUGAGUCGGUGAAUUCUUUGCUUUCUAAACUCUUCCAGAAAGGACUGUGAGCAAGAUGAAUUUA | 0.879
UCGCUUGGUAGGUGUAAGUAAUAGCAGCCCUUAGCCACGGAGUCUUUAUGUGGUUUAUUCCUGCAAGGUUGUUUUAAACUGAAAUAGAACUGCUAGUGUGAUUGGUUGAU | 1
AUGAGGAUUGCCCAAUAAGGGGCAGGUACACAUACCUGGCAAAGUGAUGAUGAUGUGAAUUGUUUCCAGUGAGGGGAUUGAGUCAAAACUUGGAUCUCAGGUACCUCAAU | 1.22
CCUGCUCUGAAAAUAGGUGCCCAGCACCCCACCGCUGCCUGCACAUGCUUCUUAGCGCUGACUUCCAGGAGCAAGAGUGAAGAGGCAGCACGUAGAACUCCCUGCAUAAG | 0.856
ACAGGAUUCUUAUCAUUUGUAAAUCUAAAACCGUCUGUGAACGCAUUUCUAUGCUUCUUCCUUUAUGAAAGCAUAACUUAAAACAUGAAAAUAAUGUUGGUUAUAGAAAU | 0.478
UCUGGUGGGAAGACAUGCCAGUGUUGGCCAUUGUCUCCCAUUCCAAAGAGAAUAACUUUGAACUGAGGGUGUGUAUCAGAGUAUGUACAUAUGUAAUAUACCCUUAUAUU | 0.424
UUUUUAACUCCAGCUUCCUUUGCUUUUUACUUGACCAAAGCUAAGACAAUAGCCAGAUGGUUAGUGGGGCAGCCAGGCAGGGAGGACCCAGGGCUGGGAUUCUCCAACCU | 0.181
GGAAAAGGUUUUAUUUUGUAAUUAUUGUGAUUUCCCGUGGCCCCAGCCUGGCCCAGCUCCCCCGGGAGGGGCCCGCUUGCCUCGGCUCCUGCUGCACCAACCCAGCCGCU | 0.748
UUUUCUAUAAGCACACUGACCUUAUGGGGCCAUGUUAUUUUUAUAUGAUAAACGUCUUCCAUAGAACUUACUAUAGUCAAAUAACAUAAAAAAACUGACCUAUACAAGUG | 0.494
CAGUGGUGGCGUGAGCAGUAGGUGAAGUGGUUGGUGAAGGAUGAGCCUCGCUCGUGAACUUCCUGUGGUAACACUUGGGAGCCUGGCCUUUUCCCAGUAUUUCCUGAAUU | 1.17
CAAACUCUGCCUCUUCCUCCCAAGUGCUGGGAUUAAGGGCAGGUACCAUAGUGCUCAGCAACCACAACCCUGUCUUUCCAACACGGCCCUAGCGUAAGCACUGAGGCAGU | 0.306
UACAAGUAAUAGAACUAUGACUGUAAGCCUCAGUACUGUACAAGGGAAGCUUUUCCUCUCUCUAAUUAGCUUUCCCAGUAUACUUCUUAGAAAGUCCAAGUGUUCAGGAC | 0.421

Set 4 — target: CCND2, cyclin fold, Cln2 fusion (human); technique: yeast growth competition, sequencing; sample: yeast; setting: weak parent motif; baseline: not given; reading: higher = stronger binding
Starting sequence: HASPIN docking peptide (human); ASLRSVLFGLMNS; partner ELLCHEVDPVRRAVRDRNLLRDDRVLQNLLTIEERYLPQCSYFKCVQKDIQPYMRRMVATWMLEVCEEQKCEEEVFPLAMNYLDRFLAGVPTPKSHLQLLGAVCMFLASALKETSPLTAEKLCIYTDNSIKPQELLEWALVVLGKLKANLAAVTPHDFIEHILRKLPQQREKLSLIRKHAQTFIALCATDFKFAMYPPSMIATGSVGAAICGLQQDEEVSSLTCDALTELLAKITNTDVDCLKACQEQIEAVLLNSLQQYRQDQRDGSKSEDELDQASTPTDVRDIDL
Substitution | normalised enrichment score
ASLRSVLFGLANS [M11A] | -0.129
ASLRSVLFALMNS [G9A] | -0.488
ASARSVLFGLMNS [L3A] | -0.277
ASLRSVLAGLMNS [F8A] | -1.01
ASLRSVLFGLMNA [S13A] | -1.07
ASLRSVLFGLMAS [N12A] | 0.0137
